Results from different studies.
Numbered parts are unrelated; each lists some results of a single study.

Sample 1
Target: Sal-like protein 4, full length isoform B (SALL4, Homo sapiens, UniProt Q9UJQ4-2, residues 1-616)
Method: universal PBM
Form: double-stranded DNA, one strand shown
Sample: in vitro
Concentration: not given
Setting: 8-mer, flanks averaged, mean of replicates
Direction: higher = stronger binding
Strand | E-score
CTCCTCGA | -0.209
ACCTACAT | 0.153
CATCAGCC | -0.0914
TATCAGCA | 0.0559

Sample 2
Target: Histone acetyltransferase KAT6A, winged helix 1, GST fusion (KAT6A, Homo sapiens, UniProt Q92794, residues 1-85)
Method: protein binding microarray
Form: double-stranded DNA, one strand shown
Sample: in vitro
Concentration: not given
Setting: 8-mer, flanks averaged, mean of 2 arrays, mostly near background
Relative to: not given
Direction: higher = stronger binding
Construct (chain): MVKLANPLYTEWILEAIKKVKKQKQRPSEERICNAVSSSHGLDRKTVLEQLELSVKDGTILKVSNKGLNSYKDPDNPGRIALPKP
Strand | E-score
TATTCTGA | -0.149
CCAAGCTA | -0.115
GATACTGA | 0.0419
AAGCCCAA | -0.198
TAATGGTA | -0.0591

Sample 3
Target: Prothrombin, mature alpha-thrombin (F2, Homo sapiens, UniProt P00734)
Method: aptamer microarray, sandwich
Form: DNA with 2'F-ANA
Sample: in vitro
Concentration: 200 nM
Setting: whole 15-mer aptamer, many near background
Added: Cy3 exosite-II aptamer, 400 nM
Direction: higher = stronger binding
Strand | mean fluorescence intensity
GGTTGGTGTGGTTGG (2'F-ANA at 1 2 6 8 10 12 13 14) | 52.1 a.u.
GGTTGGTGTGGTTGG (2'F-ANA at 3 4 5 6 7 9 10 12 13) | 51.4 a.u.
GGTTGGTGTGGTTGG (2'F-ANA at 8 9 11 12 13 14) | 201 a.u.

Single results of other studies
Molecule | target | assay | system | conditions | how to read | measurement | result
PhoQ, residues 284 288 289 292 302 303 AAQSYM | PhoP, residues 12 14 15 18 19 QWHVF (Escherichia coli, UniProt P23836) | Sort-seq, measured: YFP reporter | E. coli | PhoQ-PhoP variant library, added: 10 µM Mg2+ | relative to: high Mg2+ state, higher = stronger signaling | fold induction | 9.2
